Published values collected from several papers.
A part holds a random share of what one study measured.

Series 1 — method: competition protein-binding microarray; form: double-stranded DNA, one strand shown; matrix: in vitro; tested at: 2 µM; with: Pho4 competitor, 0.05 µM; direction: higher = stronger binding
Target: Centromere-binding protein 1, full length, His-tagged (CBF1, Saccharomyces cerevisiae, UniProt P17106, residues 1-351)
Sequence of UniProt P17106 (whole entry, looked up): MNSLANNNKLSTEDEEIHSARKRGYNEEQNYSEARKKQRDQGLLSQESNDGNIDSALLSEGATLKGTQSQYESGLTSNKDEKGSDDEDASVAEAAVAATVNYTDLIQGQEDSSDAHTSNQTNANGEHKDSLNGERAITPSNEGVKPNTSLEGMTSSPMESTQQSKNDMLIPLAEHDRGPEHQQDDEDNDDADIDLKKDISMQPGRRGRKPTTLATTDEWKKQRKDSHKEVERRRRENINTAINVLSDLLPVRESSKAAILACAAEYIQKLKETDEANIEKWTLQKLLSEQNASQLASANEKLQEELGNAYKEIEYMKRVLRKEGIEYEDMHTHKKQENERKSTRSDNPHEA
Setting: whole 60-bp probe, lowest competitor level
The fluorescence intensity of `CGGGGTTAAGTTTGTTTAGTGGGTGGCTTGCAGCAGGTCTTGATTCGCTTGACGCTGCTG` is reported as 60.1 a.u.
`GTCTTGTCTCATTTTCACGTGGTTTTCCCCACTTCAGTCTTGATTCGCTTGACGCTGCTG` gave a fluorescence intensity of 1000 a.u.
The fluorescence intensity of `CTAACGAAGGTTTTTCACGTGAACTACAAGCCAAGTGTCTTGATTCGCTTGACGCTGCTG` is reported as 1120 a.u.
`TAGTGTACTCGCGGCCACGATCCATCTGGATAACTAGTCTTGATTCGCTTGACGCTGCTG` gave a fluorescence intensity of 52.2 a.u.
`CCTTGAAGCCCGGCGGACGTGTCTGCCGGACCGAAAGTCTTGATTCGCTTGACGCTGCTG` gave a fluorescence intensity of 42.8 a.u.
`GGGGTTAAGGTCTGGCACGATGGTAAGACGATGAGGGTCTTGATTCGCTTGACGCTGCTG` has a fluorescence intensity of 76 a.u.
The fluorescence intensity of `AGATGATTAAGACATCTCGTGGAGGAATCATCATCTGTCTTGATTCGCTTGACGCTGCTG` is reported as 98.7 a.u.
With `CTGAAAAGATTTCGGCACATGGTCTTGGGACCAGAGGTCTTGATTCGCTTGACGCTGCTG` the fluorescence intensity was 180 a.u.
With `ACTTTCATTTGATGAAACGTGAAACTCTAATTAAGAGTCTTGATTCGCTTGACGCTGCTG` the fluorescence intensity was 145 a.u.
`AACCATCCCAAACACAAAGCAATCTTTACTCTACTTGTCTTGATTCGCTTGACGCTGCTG` gave a fluorescence intensity of 65.8 a.u.
`ATTAAATAGAAATATCACATGGCGATCCACTGAATGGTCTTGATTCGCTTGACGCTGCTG` gave a fluorescence intensity of 551 a.u.
The fluorescence intensity of `CTTCTGTAAATTTTTCACGTGCCATGACGCGCCCCGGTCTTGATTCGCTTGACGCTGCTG` is reported as 1180 a.u.
The fluorescence intensity of `AAAGCGGTAATTTGGAGAGTGGGTGCAGATATCTATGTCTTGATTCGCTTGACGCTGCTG` is reported as 76.1 a.u.
`AAAGTAGTATTCCGTCACGTGATGGTGATCCAATTAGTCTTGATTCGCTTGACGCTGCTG` has a fluorescence intensity of 11500 a.u.
For `TCGCACCTTTGTGAGCACATGATTCTTTCTGCCGGTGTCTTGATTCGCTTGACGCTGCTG`, the fluorescence intensity was 686 a.u.
`GTCTGCAAGTTTCTGCCCGTGCTTTTGTGTACCAATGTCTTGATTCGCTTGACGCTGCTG` has a fluorescence intensity of 79.5 a.u.
`CATACCCAACCTTTTCACGTGATCTAAGATATTTGTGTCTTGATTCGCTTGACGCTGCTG` has a fluorescence intensity of 6580 a.u.
`TATATCTTTCTATTTCACGTTCACCTTCACCTCTGCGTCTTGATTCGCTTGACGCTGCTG` gave a fluorescence intensity of 87 a.u.
With `AAATTACTAAGTTGCGGTGTGGGTGACGCCGTATGAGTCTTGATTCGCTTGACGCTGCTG` the fluorescence intensity was 74.7 a.u.

Series 2 — method: RNA Bind-n-Seq; form: RNA; matrix: in vitro; tested at: 365 nM; relative to: no-protein control; direction: higher = stronger binding
Target: RNA binding protein fox-1 homolog 2, RRM domain, GST-SBP tag (RBFOX2, Homo sapiens, UniProt O43251-10, residues 100-194)
Setting: natural RNA segment, single round, ends assumed
Target sequence (chain): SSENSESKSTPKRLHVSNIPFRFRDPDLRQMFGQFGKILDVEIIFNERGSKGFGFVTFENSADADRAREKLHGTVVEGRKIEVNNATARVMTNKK
`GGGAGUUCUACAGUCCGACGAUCGCAUGGCUUUGUAGUUUGCAUUUAACCUGGGGAUCUAUGCAUCCUGUCAAGAGGGUGGGUCCCCAUCCCCGUGUGUGGAAAAGAGACAGUGUGGCUUGCUGCCAGGCUCAUGGAAUUCUCGGGUGCCAA`: “RBNS enrichment (R)” 9.23.
`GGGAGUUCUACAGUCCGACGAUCAAAAAACCACAGUUGUAAUUUAAACUGCUUGAUAUAAAAAGAGGUAUCAUAGCAGGGAAAACACACUAAUUUUCAUACAGUAGAGGUAUUGAAAACUGAAAAUGGGAAGGUGGAAUUCUCGGGUGCCAA` — result for “RBNS enrichment (R)”: 0.491.
For `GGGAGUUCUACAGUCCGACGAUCACACAGAAAUGUAGCUGUGUUCUGGAACUGAAUCUUACAUGGUAUACUUAGUGCUGCUGGGUAAUUUGUUGGUAUAUUAUCUGGUUAGUGGUUAAUGCUUCCUUUAAAAAUGGAAUUCUCGGGUGCCAA`, “RBNS enrichment (R)” read 0.478.
Under “RBNS enrichment (R)”, `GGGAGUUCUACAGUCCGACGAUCUGAAAAUCAUGAAAAGAGGAACAGGUGGAUGUAUAGCAUUUUUAUUCAUGCCAUCUGUUUUCAACCAACUAUUUUUGAGGAAUUAUCAUGGGAAAAGACCAGGGCUUUUCUGGAAUUCUCGGGUGCCAA` is recorded as 0.546.
`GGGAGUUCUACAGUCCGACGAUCGCUAUUAAAUAACAUCGAGUAACAUCUGCAUCAGGCCCUCAGAAUAUACAGUUGAGUUGGGAGUAAACUGAAAAGACAAAUGUGUUGAAGGCUAUGCCAGGGAAUCUGGCUGGAAUUCUCGGGUGCCAA`: “RBNS enrichment (R)” 0.616.
For `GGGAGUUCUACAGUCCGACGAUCAAAAUCUUUUAUAGGAGUGCAGUGCUCCUAUACAAAGGGAAGAUGAGCCAGCAGUCCAGGCUCCUCCUCAGUUACAGUGCUGACAUAAUAAACAGUGACAGAUCAACAGUUGGAAUUCUCGGGUGCCAA`, “RBNS enrichment (R)” read 0.353.
`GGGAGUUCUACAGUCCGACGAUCAUGUGCGUCCAUGCUUGAGUGAGCAAGCCAGCGUCCUUGUCCUCCUGCAAUGCCUUUGGGAAGCUCAGGGGAAUGCUCCCCAAGCUUGUUUCUGACACUAGAAUGCAACAUGGAAUUCUCGGGUGCCAA` — result for “RBNS enrichment (R)”: 0.672.
`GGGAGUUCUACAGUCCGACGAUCCCCAGGUAGGGGUGGGGCUGCCCUUCAGCGCAGCAGUGUGGGCUGCAUUUCUGUUCACCAGCCUCCCAAACACGGCCCAGCCCCAGCCAGCCCCAGCCAGCCCCAGCGGCUGGAAUUCUCGGGUGCCAA` — result for “RBNS enrichment (R)”: 0.302.

Series 3 — method: DNA-protein interaction ELISA; form: double-stranded DNA, one strand shown; matrix: in vitro, bacterial lysate; tested at: not given; setting: whole dsDNA probe, crude lysate protein; relative to: highest signal in screen; direction: higher = stronger binding
Target: Probable WRKY transcription factor 11, DNA-binding domain (WRKY11, Arabidopsis thaliana, UniProt Q9SV15, residues 228-325)
Construct (chain): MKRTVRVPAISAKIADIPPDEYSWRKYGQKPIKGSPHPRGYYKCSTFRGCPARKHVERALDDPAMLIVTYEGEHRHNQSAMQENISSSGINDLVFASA
The relative absorbance of `AAAAAATAATATCGATACTCATGCCCAAAA` is reported as 17 % of maximum.
The relative absorbance of `AAAAAATTCTTACTTTTGTCTTTACTAAAA` is reported as 19.6 % of maximum.
The relative absorbance of `AAAAAATAGACCCTGACCCACCATTGAAAA` is reported as 18.2 % of maximum.
With `AAAAAATCCCTGCTCCCCTGGTTCCTAAAA` the relative absorbance was 10.1 % of maximum.
`AAAAAAGGGTCGCTGTGAGCTCATGAAAAA` gave a relative absorbance of 14.1 % of maximum.
With `AAAAAACTGTGTCCCCGTCCCATCTCAAAA` the relative absorbance was 12.7 % of maximum.
For `AAAAAAGCTCCCGTCTCTTAGTTCTAAAAA`, the relative absorbance was 17.6 % of maximum.
`AAAAAATCACAATACCTTCTCGTCATAAAA` has a relative absorbance of 14.4 % of maximum.
With `AAAAAATTGGCACACATGATCTCGGGAAAA` the relative absorbance was 13.8 % of maximum.
`AAAAAAAGTTCGCGGATTTCGGCCATAAAA` gave a relative absorbance of 16.7 % of maximum.
The relative absorbance of `AAAAAACTGGATGCGCTCACCAGTTAAAAA` is reported as 13 % of maximum.
The relative absorbance of `AAAAAAATTCGCAACCCTCACGTTCGAAAA` is reported as 18.2 % of maximum.
The relative absorbance of `AAAAAAACCCGTGCCTGCCTATTGCAAAAA` is reported as 10.4 % of maximum.
For `AAAAAATCCTGTTTGCGTTTGATTTTAAAA`, the relative absorbance was 12.7 % of maximum.
`AAAAAATAGCGACTTCGACTCTCAGTAAAA` has a relative absorbance of 20.5 % of maximum.
`AAAAAAGCGGTAGATGCGCAACTGTGAAAA` has a relative absorbance of 14.7 % of maximum.
`AAAAAAAAATCGAATTTGGACTTCCGAAAA` gave a relative absorbance of 21.6 % of maximum.
`AAAAAATTACTCCTAGCCCTCATTCAAAAA` gave a relative absorbance of 19.3 % of maximum.

Series 4 — method: RNA Bind-n-Seq; form: RNA; matrix: in vitro; tested at: not given; setting: RNA with constant flanks, ends assumed; relative to: input RNA pool; direction: higher = stronger binding
Target: RING finger protein unkempt homolog, zinc fingers 1-6, GST-SBP tag (UNK, Homo sapiens, UniProt Q9C0B0, residues 30-357)
Sequence of UniProt Q9C0B0 (30-357, looked up): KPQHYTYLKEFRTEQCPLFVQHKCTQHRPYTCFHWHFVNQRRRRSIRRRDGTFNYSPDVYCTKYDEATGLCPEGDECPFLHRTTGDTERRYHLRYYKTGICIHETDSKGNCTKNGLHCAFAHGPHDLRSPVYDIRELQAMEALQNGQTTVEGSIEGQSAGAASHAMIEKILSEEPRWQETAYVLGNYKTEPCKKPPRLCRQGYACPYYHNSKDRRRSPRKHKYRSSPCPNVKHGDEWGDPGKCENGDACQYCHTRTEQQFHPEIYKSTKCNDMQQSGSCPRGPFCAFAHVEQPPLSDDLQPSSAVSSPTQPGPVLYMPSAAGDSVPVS
With `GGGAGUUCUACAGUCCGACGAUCGAGUGCCCUGUGUUUACACCGCCCGGAGGAGAGACGCUGGACCAGGUGAAAAUGCGUGGAACCGACUUUUUUGAAUUUCUUUGUCAACUAAUCCUGAAAGAAGCGGAUCAAAAAGAACAGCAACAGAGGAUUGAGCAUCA` the bound/input enrichment was 0.085 ratio.
`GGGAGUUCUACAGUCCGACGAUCUGGAGUAGGUCUUAGAGUGUAACAGAUUGUUUUCCUGAGUUAUCCUCUAGGUGAGUAUGUUUCCGGACUAAACACCUUUUGCAGAUACUGAAAGUGCCUCCUUUUGUGGUAUACAAAACACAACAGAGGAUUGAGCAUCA` has a bound/input enrichment of 0.104 ratio.
The bound/input enrichment of `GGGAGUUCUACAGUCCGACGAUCUUCUUCACUCCGUAUGUAUAUCCAGCCACGUGGCCCGAGGACAACAUCAUCCGACAAACUAUCCGCCUCCUGAUUGUCACAAACCUGGGUGCUUACAUUCUCUACUUCUUCUGUGCAACCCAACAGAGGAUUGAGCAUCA` is reported as 0.356 ratio.
`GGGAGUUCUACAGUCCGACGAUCGACCGCCUGGUAGCCUUUCCUACUAGAGUAGCAGGUGGUGUUGGAAUUACCUGUUGGAUUUCCGUCUGUAACAAAGUUGUCGCUAUUGUGCUUCAUCCGUUCAGCUGAACAGGAGGAUGGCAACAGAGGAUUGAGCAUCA` gave a bound/input enrichment of 0.255 ratio.
For `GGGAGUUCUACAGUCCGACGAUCAACAAGACAGACUUGCUCGAGGAGAAAGUGCAAGUUGUUAGCAUCAAAGACUAUUUCCCCGAAUUUGAAGGGGACCCCCACUGCUUAAGAGACGUCCAAAAGUUUCUGGUGGAAUGCUUCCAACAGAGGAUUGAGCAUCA`, the bound/input enrichment was 0.203 ratio.
`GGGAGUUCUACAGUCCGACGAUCGAACCUUGGGUGAUUUGUUCUGUAUCAGAAGACAAUAUCAUGCAAGUGUGGCAAAUGGAGUCCGUCCUUGACCACUAGUUUGAUGCCAUCUCCAUUUUGGGUGACCUGUUUCACCAGCAGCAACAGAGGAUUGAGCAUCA` gave a bound/input enrichment of 0.455 ratio.
With `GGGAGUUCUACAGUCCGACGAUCCAUCUGCAGGAUAUUAAAGUGAAGUUUUCAGACCCUGGACAACCUAUGUCUUUUGUGCCCGAGUUUCACUUUGAACCCAACGACUACUUCACCAAUCCUGUCCUGACGAAAACGUACAAGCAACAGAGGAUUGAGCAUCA` the bound/input enrichment was 0.115 ratio.
`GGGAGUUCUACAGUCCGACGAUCGGAUCAGACCUGUGAACUACCCAGAAGAAAUUGUCUGCUGCCCUUUUCCAAUCCAGUGAAUUCCGAUGCCCCUGAAGACAAGGACAGCCCUUUCGGAUGAUCCAGAUUCCAGUACCAGUACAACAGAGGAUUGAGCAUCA` gave a bound/input enrichment of 0.105 ratio.
